Measurements of several laboratories.
Numbered parts are unrelated; each lists some results of a single study.

Set 1 — technique: competition protein-binding microarray; molecule type: double-stranded DNA, one strand shown; medium: in vitro; concentration: 2 µM; with: Cbf1 competitor, 0.05 µM; direction: higher = stronger binding; constant ends, left off below: … GTCTTGATTCGCTTGACGCTGCTG
Target: Phosphate system positive regulatory protein PHO4, full length, GST-tagged (PHO4, Saccharomyces cerevisiae, UniProt P07270, residues 1-312)
Setting: whole 60-bp probe, lowest competitor level
Target sequence (chain): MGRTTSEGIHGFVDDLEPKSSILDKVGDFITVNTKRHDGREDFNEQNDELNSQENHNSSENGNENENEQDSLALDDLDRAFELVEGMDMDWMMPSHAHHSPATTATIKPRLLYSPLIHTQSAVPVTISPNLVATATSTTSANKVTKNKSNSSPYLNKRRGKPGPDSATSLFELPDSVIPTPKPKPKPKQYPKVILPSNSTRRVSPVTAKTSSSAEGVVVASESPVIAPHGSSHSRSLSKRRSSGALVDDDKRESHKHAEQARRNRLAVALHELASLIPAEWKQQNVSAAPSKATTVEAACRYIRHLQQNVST
| Strand | fluorescence intensity [a.u.] |
| --- | --- |
| TGCGCAACAACTTGTCACGCAACTTTATGTCTAGAA | 5180 |
| GTAATATAGCTTTGCCACGTGCGATTTTTGGGGATA | 20700 |
| AAATTACTAAGTTGTCTAGTGGGTGACGCCGTATGA | 3310 |
| AAATTACTAAGTTTTCACGTGTGTTACCCCGTATGA | 12600 |
| CGTCCTAGCGATTGAACCGTGGGTGCCATGAGGAAG | 9330 |
| CATACCCAACCTTGCAGGGTGGGTGAAGATATTTGT | 4650 |

Set 2 — target: Sox-I, HMG box (Salpingoeca helianthica); technique: Spec-seq; molecule type: double-stranded DNA, one strand shown; medium: in vitro; concentration: not given; setting: whole probe, mean of replicates; reference: not given; direction: lower = stronger binding
Residues (chain): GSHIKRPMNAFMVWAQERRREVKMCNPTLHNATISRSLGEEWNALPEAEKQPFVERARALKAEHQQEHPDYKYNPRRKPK
| Strand | relative binding energy |
| --- | --- |
| GAGTCGTCTCGTCAGCACCATAACGCCGTAGAGCACTCAGGTC | 0.429 ln ratio |
| GAGTCGTCTCGTCAGCACCATCTGCCCGTAGAGCACTCAGGTC | 1.12 ln ratio |
| GAGTCGTCTCGTCAGCACCTAAGTTCCGTAGAGCACTCAGGTC | 0.63 ln ratio |
| GAGTCGTCTCGTCAGCACCATTTTCCCGTAGAGCACTCAGGTC | 0.624 ln ratio |

Set 3 — technique: protein binding microarray; molecule type: double-stranded DNA, one strand shown; medium: in vitro; concentration: not given; reference: not given; direction: higher = stronger binding
Target: Histone acetyltransferase KAT6A, winged helix 2, GST fusion (KAT6A, Homo sapiens, UniProt Q92794, residues 85-181)
Setting: 8-mer, flanks averaged, mean of 2 arrays, mostly near background
Target sequence (chain): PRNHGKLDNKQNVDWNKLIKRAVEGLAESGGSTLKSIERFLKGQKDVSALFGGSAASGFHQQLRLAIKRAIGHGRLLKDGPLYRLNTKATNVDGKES
| Strand | E-score |
| --- | --- |
| CCGCTATA | -0.127 |
| ATGGTGCG | -0.0359 |
| CCCATACG | -0.132 |
| GTAACCTA | -0.0967 |
| CGTAGGGA | -0.00379 |
| CATACAGA | -0.0156 |
| CTATGCTA | 0.102 |
| CTGGTCCA | -0.0709 |

Single results of other studies
| Molecule | target | test | system | conditions | scale | quantity | value |
| --- | --- | --- | --- | --- | --- | --- | --- |
| PhoQ, residues 284 288 289 292 302 303 GNNTDL | PhoP, residues 12 14 15 18 19 TQAIL (Escherichia coli, UniProt P23836) | Sort-seq, measured: YFP reporter | E. coli | PhoQ-PhoP variant library, with: 10 µM Mg2+ | reference: high Mg2+ state, higher = stronger signaling | fold induction | 2.97 |

Some of these lines once more (set 1):
| Strand | fluorescence intensity [a.u.] |
| --- | --- |
| CATACCCAACCTTGCAGGGTGGGTGAAGATATTTGT | 4650 |
| CGTCCTAGCGATTGAACCGTGGGTGCCATGAGGAAG | 9330 |
